Published values collected from several papers.
Lines come from different studies, so protocols differ. pEC50, pIC50: −log10 of the molar value.
Cell line: NCI-H460

For `CC1=C(C2=C(C)C(=O)c3c(cc(O)c(O)c3Cc3ccccc3)C2=O)C(=O)c2cc(O)c(O)c(Cc3ccccc3)c2C1=O` (racemic), the pEC50 was 6.77 (cell growth or viability, ATP luminescence; 72 h).
With `CC(=O)O[C@@H]1CC[C@@]2(C)[C@@H](CC[C@]3(C)[C@@H]2C(=O)C=C2[C@@H]4[C@@H](C)[C@H](C)CC[C@]4(C)CC[C@]23C)[C@@]1(C)C(=O)NCCNC(=O)C1CCCCC1` the pIC50 was 4.83 (cell growth or viability, MTT; 48 h).
With `COc1cc(CNC(=O)C[C@H](C)CCC=C(C)C)ccc1OCc1cn(-c2cccc([N+](=O)[O-])c2)nn1` the growth percent was 62.9% (SRB; 10 µM, 48 h).
`CC(C)C1=C(O)C(=O)C2=C(C1=O)[C@H](O)[C@@H](O)[C@H]1C(C)(C)CCC[C@]21C` has a GI50 of 25000 nM (cell growth or viability, MTT; 72 h).
With `COc1cc(CNC(=O)C[C@H](C)CCC=C(C)C)ccc1OCc1cn(-c2cccc(C(F)(F)F)c2)nn1` the growth percent was 14.6% (SRB; 10 µM, 48 h).
With `CC(=O)OC[C@H]1O[C@@H](Sc2sc(C(=O)c3ccc(Br)cc3)c(N)c2-c2nc3ccccc3s2)[C@H](OC(C)=O)[C@@H](OC(C)=O)[C@@H]1OC(C)=O` the growth was 44.3% (SRB; 10 µM, 48 h; baseline: untreated).
For `COc1cc(CNC(=O)C[C@H](C)CCC=C(C)C)ccc1OCc1cn(-c2ccccc2Cl)nn1`, the growth percent was 78.4% (SRB; 10 µM, 48 h).
For `CC/C=C\C/C=C\C/C=C\C/C=C\C/C=C\C/C=C\CCC(=O)Nc1ccn(C2OC(CO)C(O)C2(F)F)c(=O)n1` (stereo not drawn), the GI50 was 15.3 nM (cell growth or viability, SRB).
`CC(=O)OC[C@H]1O[C@@H](Sc2sc(C(=O)c3ccc(C)cc3)c(N)c2-c2nc3ccccc3s2)[C@H](OC(C)=O)[C@@H](OC(C)=O)[C@@H]1OC(C)=O` has a growth of 43.7% (SRB; 10 µM, 48 h; baseline: untreated).
The GI50 of `CCC(=C(c1ccc(Cl)cc1)c1ccc(OCCCN(C)C)cc1)c1ccc(OC)cc1` is reported as 1100 nM (cell growth or viability, SRB).
With `COc1ccc2c(c1)/C(=N\Nc1nnc3n1N=C(c1ccccc1)CS3)C(=O)N2` the inhibition was 65% (cell growth or viability, SRB; 10 µM).
The phototoxicity index of `CCC1=C(CC)C2=[N+]3C1=Cc1c(CC)c(CC)c4[n]1[Ir-3]31([Cl])([C]#[O+])[n]3c(c(CC)c(CC)c3=CC3=[N+]1C(=C4)C(CC)=C3CC)=C2` is reported as greater than 2.5 (baseline: IC50 dark over IC50 light).
For `CC(Cc1ccc(Cl)cc1)=C(c1ccc(Cl)cc1)c1ccc(OCCN(C)C)cc1`, the GI50 was 1220 nM (cell growth or viability, SRB).
For `CC(=O)O[C@@H]1CC[C@@]2(C)[C@@H](CC[C@]3(C)[C@@H]2C(=O)C=C2[C@@H]4[C@@H](C)[C@H](C)CC[C@]4(C)CC[C@]23C)[C@@]1(C)C(=O)NCCNC(=O)CCCCBr`, the pIC50 was 5.03 (cell growth or viability, MTT; 48 h).
For `COc1cc(CNC(=O)C[C@H](C)CCC=C(C)C)ccc1OCc1cn(-c2ccc(C#N)cc2)nn1`, the growth percent was 45.8% (SRB; 10 µM, 48 h).
For `CCC1=C(CC)C2=[N+]3C1=Cc1c(CC)c(CC)c4[n]1[Ir-3]31([n+]3ccccc3)([n+]3ccccc3)[n]3c(c(CC)c(CC)c3=CC3=[N+]1C(=C4)C(CC)=C3CC)=C2.[Cl-]`, the phototoxicity index was 23.1 (baseline: IC50 dark over IC50 light).
`COc1cc(CNC(=O)C[C@H](C)CCC=C(C)C)ccc1O` has a growth percent of 104% (SRB; 10 µM, 48 h).
The GI50 of `CC(=O)O[C@H]1C2=C(C(=O)C(O)=C(C(C)C)C2=O)[C@@]2(C)CCCC(C)(C)[C@@H]2[C@@H]1O` is reported as 2700 nM (cell growth or viability, MTT; 72 h).

For quick reference, copied from above:
For `COc1cc(CNC(=O)C[C@H](C)CCC=C(C)C)ccc1OCc1cn(-c2ccccc2Cl)nn1`, the growth percent was 78.4% (SRB; 10 µM, 48 h).
